Results collected from several papers.
Values joined by “and” are separate records of one study, mostly repeats; a detail may differ. ± marks the error that the study gave.
CASP7: Caspase-7 (CASP7, Homo sapiens, UniProt P55210)
T1: G-quadruplex DNA (Homo sapiens); GGGAGGGTTGGGGTGGG

Compound | target | test | system | setting | scale | quantity | result
CN(C)c1ccc2c(c1)C(=O)N(CCc1ccc(OS(N)(=O)=O)cc1)C2=O | CA2 (Bos taurus, UniProt P00921) | binding |  |  |  | emission maximum | 550 nm
Cc1ccc(-n2cc(CNC(=O)c3cncc(Br)c3)cn2)cc1 | human kinase panel | binding, KINOMEscan |  | 10000 nM, %Ctrl below 10 |  | number of kinases hit | 0
Cc1cc(C)cc(COc2cc3c(cc2OCc2cc(C)cc(C)c2)C2CC(O)(Cc4cn(CCOCCOCCNC(=O)CCCCC5SCC6NC(=O)NC65)nn4)CC(C)N2CC3)c1 (stereo not drawn) | Conserved oligomeric Golgi complex subunit 5 (Homo sapiens, UniProt Q9UP83) | biotinylated probe pull-down, refers to: COG5 |  | 10 µM probe | relative to: heavy over light | SILAC ratio | 2.21
CCCCCC=CC=C1C(=O)C=CC1CC=CCCCC(=O)O (stereo not drawn) | CCT5 (Homo sapiens, UniProt P48643) | competitive isoTOP-ABPP | Ramos soluble proteome | 100 µM, together with: iodoacetamide probe | relative to: DMSO over compound-treated, higher = stronger cysteine blockade | isoTOP-ABPP competition ratio | 1.9
O=C(O)Cc1cc2c(cc1C(=O)c1cccc(I)c1)OCO2 | Gria2 (Rattus norvegicus, UniProt P19491) | glutamate-evoked current, whole-cell patch clamp | HEK-293T | concentration not given | relative to: glutamate alone | current amplitude ratio | 3.56 ± 0.1
CC(=O)N[C@H](C(=O)N[C@@H](CCC(N)=O)C(=O)N[C@@H](CO)C(=O)N[C@@H](CC(=O)O)C(=O)COC(=O)c1c(C)cccc1C)C(C)(C)C | CASP7 | enzyme activity, inhibitor |  |  |  | kinact/KI | 2000 M⁻¹ s⁻¹
N#CN1CC[C@H](C(=O)Nc2nc3c(s2)CN(C(=O)Cn2cc(CNC(=O)CCCC[C@@H]4SC[C@@H]5NC(=O)N[C@@H]54)nn2)CC3)C1 | USP19 (Homo sapiens, UniProt O94966) | probe binding, affinity probe, neutravidin pull-down LC-MS/MS | HEK293T, cell lysate | 5 µM, 1 h, single replicate, unit not given | higher = more pulled down | iBAQ abundance | 1.54e+06 and 970000 and 2.35e+06
O=C(Nc1cccc(N2CCNCC2)c1)c1cc(-c2ccccc2)n(-c2ccccc2)n1 | Genome polyprotein, NS2B-NS3 protease (dengue virus type 2, UniProt P29990) | enzyme activity, fluorogenic AMC substrate |  | 50 µM |  | inhibition | 94%
COC(=O)[C@]1(C(C)C)C=C(C(=O)Nc2cccc(C(=O)Nc3ccc(Nc4nccc(-c5cccnc5)n4)c(C)c3)c2)C(=O)CC1 | MAPK8 (Homo sapiens, UniProt P45983, C116S) | binding, SPR |  | 100, 300, 1000 nM, 1:1 binding model |  | kon | 311000 M⁻¹ s⁻¹
CN(C)c1ccc(C2=C/C(=C/C=C/c3sc4ccccc4[n+]3C)c3ccccc3O2)cc1 | T1, G-quadruplex DNA (Homo sapiens) | fluorescence turn-on |  |  |  | binding | binds
CCOC(=O)C(CC)(CCCSCCOCCOCCN=[N+]=[N-])NC(=O)c1ccc(C2CC2)c(Cc2ccc(F)cc2)n1 (stereo not drawn) | CNR2 (Homo sapiens, UniProt P34972) | cAMP, agonist |  |  |  | Emax | 93%
C/C1=C\CC/C(C)=C/CC(C)(C)/C=C/C1 | TRPV4 (Homo sapiens, UniProt Q9HBA0) | inhibitor, outside-out patch clamp |  | 100 µM, pulses to +120 mV, together with: GSK1016790A 1 µM |  | inhibition time constant | 400 ms
CCCC[C@H](NC(C)=O)C(=O)N[C@@H](CCCC(=O)O)C(=O)N1CCC[C@H]1C(=O)N[C@@H](CC(=O)O)C(=O)COC(=O)c1c(C)cccc1C | CASP7 | enzyme activity, inhibitor |  |  |  | kinact/KI | 12300 M⁻¹ s⁻¹
C#CCOC(=O)[C@]1(C)C=C(C(=O)OC(C)(C)C)C(=O)CC1 | MAPK1 (Homo sapiens, UniProt P28482) | enzyme activity, D-SENSOR |  | 1.646 µM, single replicate |  | normalized kinase activity | 0.867 and 0.997 and 0.643
Clc1ccc(NN=C(c2ccccc2)c2ccccn2)nc1 | KDM4A (Homo sapiens, UniProt O75164) | demethylase activity, inhibitor, 1H NMR, refers to: H3K9me3 peptide |  | 160 µM, single exponential fit |  | rate constant | 0.021 min⁻¹
